Experimental data from different studies.

Compound	organism	test	system	conditions	endpoint	result
O=C(CO/N=c1\cc2n(-c3ccc(Cl)cc3)c3ccccc3nc-2cc1Nc1ccc(Cl)cc1)NCc1ccc(C(F)(F)F)cc1	Neisseria meningitidis	bacterial growth	ATCC 13077	24 h	MIC	> 30 µM
O=c1[nH]c(NCc2ccc(Cl)c(Cl)c2)nc2ncn(CCN3CCOCC3)c12	Clostridioides difficile	agar dilution anaerobic	ATCC 4381	48 h	MIC	1 µg/mL
Nc1[nH]c(=O)ncc1F	Cryptococcus neoformans	EUCAST broth dilution	–	72 h, 37 °C, 100% growth inhibition, alone	MIC	8 µg/mL
CCOCCn1cnc2nc(NCc3ccc(Cl)c(Cl)c3)[nH]c(=O)c21	Clostridioides difficile	agar dilution anaerobic	3588	48 h	MIC	1 µg/mL
N=C(N)c1ccc(OCc2ccc(Br)cc2COc2ccc(C(=N)N)cc2)cc1	Escherichia coli	–	BW25113	in combination, lowest-FICI combination, together with: vancomycin	MIC	100 µg/mL
CCCCCCCCCC(=O)N[C@@H](Cc1c[nH]c2ccccc12)C(=O)N[C@H](CC(N)=O)C(=O)N[C@@H](CC(=O)O)C(=O)N[C@@H]1C(=O)NCC(=O)N[C@@H](CCCN)C(=O)N[C@@H](CC(=O)O)C(=O)N[C@H](C)C(=O)N[C@@H](CC(=O)O)C(=O)NCC(=O)N[C@H](CO)C(=O)N[C@@H]([C@H](C)CC(=O)O)C(=O)N[C@@H](CC(=O)c2ccccc2N)C(=O)O[C@@H]1C	Staphylococcus aureus	–	SH1000	together with: phosphatidylethanolamine, molar ratio 1	MIC	1 µg/mL
Cc1ncc([N+](=O)[O-])n1CCO	Clostridioides difficile	agar dilution anaerobic	3588	48 h	MIC	0.5 µg/mL
C[C@H]1[C@H](NC(=O)/C(=N\OC(C)(C)C(=O)O)c2csc(N)n2)C(=O)N1S(=O)(=O)O	Proteus vulgaris	agar dilution	ATCC 29905 susceptible	–	MIC	≤ 0.03 µg/mL
C[C@H](NC(=O)CO/N=c1\cc2n(-c3ccc(Cl)cc3)c3ccccc3nc-2cc1Nc1ccc(Cl)cc1)C(=O)OC(C)(C)C	Neisseria meningitidis	bacterial growth	ATCC 13077	24 h	MIC	> 30 µM
N=C(N)c1ccc(OCc2cc(Br)cc(COc3ccc(C(=N)N)cc3)c2)cc1	Escherichia coli	–	mcr-3 polymyxin-resistant	compound alone	MIC	100 µg/mL
OC(Cn1cncn1)(Cn1cncn1)c1ccc(F)cc1F	Cryptococcus neoformans	–	129, RPMI 1640	24 h, 35 °C	MIC	50 µM
CCc1cc(Nc2cc(=O)n(CCCCO)c(=O)[nH]2)ccc1C	Clostridioides difficile	agar dilution anaerobic	3581	48 h	MIC	8 µg/mL
CO[C@H]1/C=C/O[C@@]2(C)Oc3c(C)c(O)c4c(c3C2=O)C2=NC3(CCN(CCn5c([N+](=O)[O-])cnc5C)CC3)NC2=C(NC(=O)/C(C)=C\C=C\[C@H](C)[C@H](O)[C@@H](C)[C@@H](O)[C@@H](C)[C@H](OC(C)=O)[C@@H]1C)C4=O	Clostridioides difficile	agar dilution	fluoroquinolone-resistant	–	MIC	≤ 0.002 µg/mL
O=C(O)CO/N=c1\cc2n(-c3ccc(Cl)cc3)c3ccccc3nc-2cc1Nc1ccc(Cl)cc1	Neisseria meningitidis	bacterial growth	ATCC 13077	24 h	MIC	0.23 µM
O=c1[nH]c(NCc2ccc(Cl)c(Cl)c2)nc2ncn(CCCCCN3CCOCC3)c12	Clostridioides difficile	agar dilution anaerobic	3588	48 h	MIC	0.5 µg/mL
CC(C)(C)Oc1ccc(CC2NC(=O)C(C(=O)NC(C(=O)NC3C(=O)N4C3SC(C)(C)C4C(=O)O)c3ccccc3)=C2O)cc1 (stereo not drawn)	Escherichia coli	broth microdilution	ATCC 25922 wild type	no clavulanic acid	MIC	25 µg/mL
N=C(N)c1ccc(OCCCCCOc2ccc(C(=N)N)cc2)cc1	Escherichia coli	–	552100	in combination, checkerboard, together with: rifampicin	MIC	50 µg/mL
[H]/N=C(/NCCCCC)N/N=C/c1c[nH]c2ccc(OC)cc12	Toxoplasma gondii	parasite growth	HFF, bradyzoite, alkaline-induced	–	EC90	8.34 µM
CC1(C)SC2C(NC(=O)C(NC(=O)C3=C(O)CN(c4ccccc4)C3=O)c3ccccc3)C(=O)N2C1C(=O)O (stereo not drawn)	Escherichia coli	broth microdilution	ATCC 25922 wild type	no clavulanic acid	MIC	25 µg/mL
C=C1C(=O)O[C@@H](CCCCCCCCCCCCC)[C@@H]1C(=O)O	Nakaseomyces glabratus	–	CG2	–	MIC	32 µg/mL
O=C1C(O)=C([C@H]2CC[C@H](c3ccc(Cl)cc3)CC2)C(=O)c2ccccc21	Toxoplasma gondii	bradyzoite growth	–	pH 8.2, alkaline-induced bradyzoites	EC50	2.07 µM

A few entries again:
Compound	organism	test	system	conditions	endpoint	result
CCCCCCCCCC(=O)N[C@@H](Cc1c[nH]c2ccccc12)C(=O)N[C@H](CC(N)=O)C(=O)N[C@@H](CC(=O)O)C(=O)N[C@@H]1C(=O)NCC(=O)N[C@@H](CCCN)C(=O)N[C@@H](CC(=O)O)C(=O)N[C@H](C)C(=O)N[C@@H](CC(=O)O)C(=O)NCC(=O)N[C@H](CO)C(=O)N[C@@H]([C@H](C)CC(=O)O)C(=O)N[C@@H](CC(=O)c2ccccc2N)C(=O)O[C@@H]1C	Staphylococcus aureus	–	SH1000	together with: phosphatidylethanolamine, molar ratio 1	MIC	1 µg/mL
C=C1C(=O)O[C@@H](CCCCCCCCCCCCC)[C@@H]1C(=O)O	Nakaseomyces glabratus	–	CG2	–	MIC	32 µg/mL
